# Measured values pooled from the literature.
# Every numbered part comes from another study and shows a few of its results, in no order. Positions count from the first letter of the parent shown.

# Block 1
# Target: Sal-like protein 4, full length isoform A (SALL4, Homo sapiens, UniProt Q9UJQ4, residues 1-1053)
# UniProt Q9UJQ4, sequence (whole entry, looked up): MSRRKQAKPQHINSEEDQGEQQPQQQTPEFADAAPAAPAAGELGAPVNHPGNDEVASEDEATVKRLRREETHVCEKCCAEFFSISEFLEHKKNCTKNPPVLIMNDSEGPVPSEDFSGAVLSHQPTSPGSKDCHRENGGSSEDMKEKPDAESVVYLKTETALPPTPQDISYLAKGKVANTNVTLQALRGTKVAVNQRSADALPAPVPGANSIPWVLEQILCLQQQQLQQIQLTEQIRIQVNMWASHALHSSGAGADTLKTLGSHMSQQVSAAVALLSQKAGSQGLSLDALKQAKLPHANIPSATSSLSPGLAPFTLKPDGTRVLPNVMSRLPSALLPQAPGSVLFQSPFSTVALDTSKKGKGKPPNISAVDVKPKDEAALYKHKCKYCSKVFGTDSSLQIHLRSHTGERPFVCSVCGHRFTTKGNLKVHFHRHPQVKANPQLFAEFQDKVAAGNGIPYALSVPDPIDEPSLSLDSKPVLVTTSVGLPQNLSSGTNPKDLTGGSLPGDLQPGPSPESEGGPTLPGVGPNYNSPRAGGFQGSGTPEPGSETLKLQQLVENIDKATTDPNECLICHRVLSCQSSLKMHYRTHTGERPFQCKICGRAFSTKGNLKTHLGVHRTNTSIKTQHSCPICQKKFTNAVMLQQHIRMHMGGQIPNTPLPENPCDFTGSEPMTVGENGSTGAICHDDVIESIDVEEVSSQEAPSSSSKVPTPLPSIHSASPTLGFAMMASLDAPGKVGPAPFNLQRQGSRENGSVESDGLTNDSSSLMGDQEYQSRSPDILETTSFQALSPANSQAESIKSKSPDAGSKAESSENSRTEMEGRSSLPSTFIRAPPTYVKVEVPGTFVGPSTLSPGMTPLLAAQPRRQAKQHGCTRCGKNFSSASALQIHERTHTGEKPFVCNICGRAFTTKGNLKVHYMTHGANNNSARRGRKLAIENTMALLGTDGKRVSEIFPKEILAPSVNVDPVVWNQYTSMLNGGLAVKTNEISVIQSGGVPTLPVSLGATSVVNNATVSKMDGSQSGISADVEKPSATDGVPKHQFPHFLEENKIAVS
# Method: universal PBM
# Molecule type: double-stranded DNA, one strand shown
# Sample: in vitro
# Tested at: 600 nM
# Setting: 8-mer, flanks averaged, mean of replicates
# Direction: higher = stronger binding
Sequence,E-score
GTAAGCAC,-0.054
AATTGGTG,0.161
GGTAACTA,0.1
AAAGTCCG,-0.203
TAAGCTCA,-0.0673
GCCGCCAC,-0.356
CGGCACCG,-0.358
CTTTGTAA,0.219
GAGGGCCC,-0.403
AGCTGATG,-0.00294
CTCAGTTC,0.0502
AATGCGTC,-0.0762
ACGCCGTA,-0.0654
AGGGCCAG,-0.287
CTCCAATC,-0.198
AAGCACAG,-0.0336
AATGTCGG,0.0135
TCTAGTAA,0.268
AACGCAGG,-0.176
AACGGGCC,-0.229
AAATTAAT,0.43
AATGACAG,0.0851
GCAACAAA,0.0975
ACACTAAA,0.223
ATTAGTGG,0.114

# Block 2
# Target: Centromere-binding protein 1, full length, His-tagged (CBF1, Saccharomyces cerevisiae, UniProt P17106, residues 1-351)
# UniProt P17106, sequence (whole entry, looked up): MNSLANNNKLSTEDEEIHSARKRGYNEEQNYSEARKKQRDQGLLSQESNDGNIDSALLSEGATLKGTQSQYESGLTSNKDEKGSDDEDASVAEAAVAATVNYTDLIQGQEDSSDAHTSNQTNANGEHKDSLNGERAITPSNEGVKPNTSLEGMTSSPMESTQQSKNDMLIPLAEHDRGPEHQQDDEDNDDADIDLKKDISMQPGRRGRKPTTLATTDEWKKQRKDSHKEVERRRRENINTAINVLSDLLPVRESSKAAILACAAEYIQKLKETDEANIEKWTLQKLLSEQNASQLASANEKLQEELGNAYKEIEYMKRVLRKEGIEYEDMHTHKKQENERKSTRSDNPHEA
# Method: competition protein-binding microarray
# Molecule type: double-stranded DNA, one strand shown
# Sample: in vitro
# Tested at: 2 µM
# Setting: whole 60-bp probe, lowest competitor level
# Added: Pho4 competitor, 0.05 µM
# Direction: higher = stronger binding
# Constant ends, left off below: … GTCTTGATTCGCTTGACGCTGCTG
Sequence,fluorescence intensity [a.u.]
CATACCCAACCTTGATCCGTGGGTGAAGATATTTGT,63.7
AAATTACTAAGTTGAAACGTGGGTGACGCCGTATGA,92.8
CCCCTCCTGCCTACACGCATGCGGCTTTGATCCTTC,75.3
GTTTGGTGCAGTGGCCACGAGGTGACTGCGACAGTC,106
GTCCCCACCTCCTGTCACATGACAATTTTTGTTACT,2070
CCGATAGTAAGGTTCGACGTGGTGAACCATCAACAA,63.1
TAAGGTCATTAAGAACCCGTGACTCGTATCACCAAA,1430
CTTACCGTCAACTTTGACGTGACGGAGCATCAAGAT,77.4
AAAGCGGTAATTTGACTGGTGGGTGCAGATATCTAT,74.2
ATTTGGACAAGGTTCCACGTGAGTATGTTCGTTATT,799
TTGAGTATTATGGTGGCATACTTTCAAGGGAGCTTG,74.6
CTTTCCCGATCTTGCGACGTGGGTGTAGCACATTTG,75
AAATTACTAAGTTGATGCGTGGGTGACGCCGTATGA,68.3
CAAAGCCCTATTCGCGTCGTGACGGACTGAATGTCA,112
GTCCAACAAGTATAACAGGTGATACACATAGAAAGA,204
TTCTGCAGATAGTCTCTCGTGACTCGAATCTCGGAA,514
GAATGAGGTTGATAACTCGTGGATTTTTTATACCTG,83.6

# Block 3
# Target: RNA binding protein fox-1 homolog 2, RRM domain, GST-SBP tag (RBFOX2, Homo sapiens, UniProt O43251-10, residues 100-194)
# Method: RNA Bind-n-Seq
# Molecule type: RNA
# Sample: in vitro
# Tested at: 365 nM
# Setting: natural RNA segment, single round, ends assumed
# Reference: no-protein control
# Direction: higher = stronger binding
# Constant ends, left off below: GGGAGUUCUACAGUCCGACGAUC … UGGAAUUCUCGGGUGCCAA
# Target sequence (chain): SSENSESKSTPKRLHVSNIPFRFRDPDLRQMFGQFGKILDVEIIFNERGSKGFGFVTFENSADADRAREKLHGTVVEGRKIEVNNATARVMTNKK
Sequence,RBNS enrichment (R)
UCAUCAUGACACAGCAAGCCGUGACCCCUCUGUCUGCUGUACUGGCCCAGCCUCCUGCUCGCACCUCCUGCCCUACCUAGGAAGCCCUCCAGAGGGCCAGCCUCUGCUGA,0.379
CCAUGUUCAGAUGUAUGGUGGAUGUUACUGUCACAAUAAAGUUCAAAGUGGCCAGUGCCCAUCAGAGAGCAGUGUUGUCAUUGAACUUGGCCUCUACCUGGGGGUAUAUG,0.473
UGGAAUGAAUUUUUGUCUUUUGUAUUUUAAUCACUUGAGUGAAUCAACUAUUAGCAAAUUCCAUUUGGUGGCUUAGCAUUGGAAAGAACAGAUAAAGUAGCUGAUGCCUA,1.33
GAUACUUUGCAGCUCAUCCAAAGAGACAUAACUAAACCCUAAACUCUUUUUUUGUUGUUGUUGUUGUUGUUUUUUUUUUUUAUGAUUAAAAAGUAAAAAUUGUAGUUUAA,0.531
CUUAGAACUUUCCAAGCGCCAGUGCACAGCGUUCUAGGGAAUGGUGCUCCUUGGCUGGGUGAGCUGCCAGGCAAGUUUAAAUAUGCUGUGUGUGCCACAUUUUUAAAUUU,0.763
CUGCUGUCUCUGUAUGUCCAGUCGGUGGAACACUGUAAUGACUUGAGAAUAAACUGCCCAGAGUUCAUUUUCACUCACGUCCCCUUUUAUUUGGUUCAGUGUUCAUGUGA,0.507
CUUUAUUUUUAAGGAGCAGACUUUAAAAUGAGCCCUGACCUUUACCCAUUAUAACAGAAUUUGUCAAAAGGAGUGUUUCUUGAGGAGGUAGCUUUUUUUUACCACACUAC,0.4
UCAAGCCUGCUUAAGCUACUUAUAGUUCAGGGUCCGCUUAACAAUUUAUAAGACUGUGUCUUGUUCACCAGUGAGAGAGGGCUGAGGUCAUUACUCACCUGGCACAGACG,0.276
GCAAAGAGUCAGGAAGGUUACUGAAUUAGGGAACAUUUUCUGCACCUUCUGAUUUUACUUAAGCAGCUACCAUUCCAUGGACUUGCCUCCCAGAGCAGCACAAUGCCCGU,1.67
AAUGCAUAUUCAUGCCAAAACAAGUGGUCCCCAAGCCUGUUUAAAAGGUUAACUUGGCCCGAAAAUAUUGCAGCAGCUUCAUGCAAGAAUUGCCACAGGACACUAUGGCC,0.35
UGGCGGAGAGAAGAAAAUGGGAAAGACAUCUCACUGGUGCUUUUCUCUUUUGUUUUAGUGCCCCCCGCCCCCAUCCCUAUAAUAUCUGUAACUACUCCUAAAAAGGUUUU,0.357
GGAGAAGCAGUGCCUGCCAGCUGUGGUGGACCUUCCUAAGAAAUAAAUAUCCUUUAUGUUUUCAAACAUCCUGUCUGAGGUCUGCUGAUUACACUGUCUCUGAAAAAUCA,1.49

# Block 4
# Target: Interferon regulatory factor 5, full length, phosphomimetic (IRF5, Homo sapiens, UniProt Q13568-2, residues 1-514, S451D/S453D/S456D/S462D)
# Method: protein-binding microarray
# Molecule type: double-stranded DNA, one strand shown
# Sample: in vitro
# Tested at: 940 nM top
# Setting: 60-bp whole probe
# Added: salmon DNA 0.4 mg/ml
# Reference: random background probes
# Direction: higher = stronger binding
# Constant ends, left off below: GCCTAGCAC … GTCTTGATTCGCTTGACGCTGCTG
Sequence,fitted relative affinity [z-score]
GCACTTTTCCCCCTAGTTGTGTGCTAG,1.4
CAGGGTTTCACTTTAAATTAGTGCTAG,5.79
GACGAACTGAGTCCCGAGACGTGCTAG,-0.21
GACTGTTTCGACTTTCGGGACGTGCTA,3.71
GACGGTATCGACAATCGGGACGTGCTA,3.55
TTAGAAATCGGGTATCGATTAGTGCTA,3.24
GGTACTCACCTCCAGGCTGAGTGCTAG,0.194
AGTGGCCCAGGGCATCCCCTGTGCTAG,-0.973
TCATGTTTGATCTTGATACTGTGCTAG,0.372
TTAGGTATCGCGACTGGGTTAGTGCTA,0.885
TCACTAATGTTTTTTAAACTGTGCTAG,0.294
ACTCCTATCCAAGTTCCCCTGGTGCTA,0.826
GACGGTATCGGGACTGGGTACGTGCTA,2.81
GACGGTTACGGGACTGGGGACGTGCTA,-0.0569

# Block 5
# Target: ABI1, truncated, D143A, DHFR fusion (Arabidopsis thaliana)
# Method: DHFR PCA, deep sequencing
# Sample: yeast
# Setting: methotrexate growth selection, single substitutions
# Added: (+)-ABA 0.0091 µM
# Reference: wild-type fitted maximum
# Direction: higher = stronger binding
# Starting sequence: PYL1, truncated, DHFR fusion (Arabidopsis thaliana); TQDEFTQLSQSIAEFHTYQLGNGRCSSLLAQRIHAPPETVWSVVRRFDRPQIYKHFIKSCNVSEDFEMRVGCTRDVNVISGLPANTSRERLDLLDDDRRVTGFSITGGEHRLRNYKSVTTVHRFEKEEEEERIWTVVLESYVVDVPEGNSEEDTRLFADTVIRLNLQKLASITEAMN; partner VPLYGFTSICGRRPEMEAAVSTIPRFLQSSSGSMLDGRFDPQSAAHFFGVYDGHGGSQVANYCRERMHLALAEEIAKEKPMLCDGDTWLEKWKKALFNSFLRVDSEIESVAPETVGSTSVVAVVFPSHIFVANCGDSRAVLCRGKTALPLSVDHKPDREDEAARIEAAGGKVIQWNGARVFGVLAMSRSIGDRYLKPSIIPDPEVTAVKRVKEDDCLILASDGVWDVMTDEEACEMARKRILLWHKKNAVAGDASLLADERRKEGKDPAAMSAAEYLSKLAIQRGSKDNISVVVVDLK
Substitution,relative binding score [%]
L82C,15
R46I,-4.13
I172G,-7.34
R113V,28
V43G,-2.45
H34C,34.8
F66S,3.74
D97N,29.1
V145P,0.265
E14G,-0.328
E152V,5.94

# Block 6
# Target: Histone acetyltransferase KAT6A, both winged helices, GST fusion (KAT6A, Homo sapiens, UniProt Q92794, residues 1-181)
# Method: protein binding microarray
# Molecule type: double-stranded DNA, one strand shown
# Sample: in vitro
# Tested at: not given
# Setting: 8-mer, flanks averaged, mean of 2 arrays, mostly near background
# Reference: not given
# Direction: higher = stronger binding
# Target sequence (chain): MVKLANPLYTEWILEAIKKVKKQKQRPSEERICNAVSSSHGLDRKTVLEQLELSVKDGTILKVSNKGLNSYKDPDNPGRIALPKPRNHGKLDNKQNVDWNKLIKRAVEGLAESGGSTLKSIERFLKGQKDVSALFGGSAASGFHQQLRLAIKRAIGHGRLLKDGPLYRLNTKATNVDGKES
Sequence,E-score
GATTATTA,0.0285
TTCCGAAA,0.0459
AGCATACA,-0.0978
CCATCATA,-0.221
ATCATTAA,0.0374
ATCCCGCA,0.148
ATCCGTAG,0.129
ACAGATAT,-0.0536
AAAATTAA,-0.00093
AGAGTAAG,-0.152
GCCACTAA,-0.158
CCCCGCCG,0.31
TAGGACCA,-0.174
GGGGAACA,-0.112
ATAACACA,-0.13
CATTAATC,-0.0101
ACGCTGAA,0.182
AGTCAGCA,-0.0494
ATCTAAAG,-0.136
ACAGCGGT,0.199
GTCTAACA,-0.0117
GTTGAGTA,0.0073

# Block 7
# Target: CCNE1, cyclin fold, Cln2 fusion (human)
# Method: yeast growth competition, sequencing
# Sample: yeast
# Setting: strong parent motif
# Reference: not given
# Direction: higher = stronger binding
# Starting sequence: E2F1 docking peptide (human); PPVKRRLDFETDH
Substitution,normalised enrichment score
PPVKRRLDTETDH [F9T],0.196
PPVKRPLDFETDH [R6P],0.224
PPVKRRLPFETDH [D8P],1.76
PPVKLRLDFETDH [R5L],0.553
PPVKRRLDKETDH [F9K],0.114
PPVKRRLDFETVH [D12V],6.48
PPVKRRLDFETLH [D12L],6.28
PPVKRRLDPETDH [F9P],0.0745
PPVKRRLDFEEDH [T11E],5.45
PPVKRRLDFWTDH [E10W],5.1
PPVKYRLDFETDH [R5Y],0.323
PPVKRRLDHETDH [F9H],-0.152
PPVKRRLDFETPH [D12P],6.35
PPVKTRLDFETDH [R5T],0.434
PPVKPRLDFETDH [R5P],0.167
PCVKRRLDFETDH [P2C],6.42

# A few entries again (block 7):
Substitution,normalised enrichment score
PPVKRRLDPETDH [F9P],0.0745
PPVKRRLDFEEDH [T11E],5.45
PCVKRRLDFETDH [P2C],6.42
PPVKLRLDFETDH [R5L],0.553
PPVKRRLPFETDH [D8P],1.76
PPVKRRLDTETDH [F9T],0.196
PPVKRRLDHETDH [F9H],-0.152
